Measurements collected from several papers.
Each numbered part is a random draw from the data of one study; scales do not carry over between parts.

Sample 1 — technique: aptamer microarray, sandwich; form: DNA with 2'F-ANA; sample: in vitro; tested at: 200 nM; together with: Cy3 exosite-II aptamer, 400 nM; direction: higher = stronger binding; strand: GGTTGGTGTGGTTGG
Target: Prothrombin, mature alpha-thrombin (F2, Homo sapiens, UniProt P00734)
Setting: whole 15-mer aptamer, many near background
Modification	mean fluorescence intensity
2'F-ANA at 2 3 6 7 8 13 15	644 a.u.
2'F-ANA at 3 5 6 10 11 12 14	49.7 a.u.
2'F-ANA at 2 3 5 6 8 9 11 12 14	54.8 a.u.
2'F-ANA at 3 7 9 13 14 15	577 a.u.
2'F-ANA at 4 5 9	79.9 a.u.

Sample 2 — technique: protein binding microarray; form: double-stranded DNA, one strand shown; sample: in vitro; tested at: not given; reference: not given; direction: higher = stronger binding
Target: Histone acetyltransferase KAT6A, both winged helices, GST fusion (KAT6A, Homo sapiens, UniProt Q92794, residues 1-181)
Setting: 8-mer, flanks averaged, mean of 2 arrays, mostly near background
Residues (chain): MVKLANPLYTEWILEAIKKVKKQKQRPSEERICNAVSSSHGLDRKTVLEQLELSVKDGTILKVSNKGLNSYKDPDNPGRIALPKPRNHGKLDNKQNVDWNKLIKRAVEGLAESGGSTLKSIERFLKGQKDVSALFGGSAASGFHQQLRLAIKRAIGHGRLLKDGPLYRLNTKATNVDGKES
Strand	E-score
AGACCTAG	-0.0426
CCGAGCCG	0.312
AGTACTAC	-0.133
TAAAAGGA	-0.179

Single results of other studies
SALL4 full length isoform A: Sal-like protein 4, full length isoform A (SALL4, Homo sapiens, UniProt Q9UJQ4, residues 1-1053)
Chain of UniProt Q9UJQ4 (whole entry, looked up): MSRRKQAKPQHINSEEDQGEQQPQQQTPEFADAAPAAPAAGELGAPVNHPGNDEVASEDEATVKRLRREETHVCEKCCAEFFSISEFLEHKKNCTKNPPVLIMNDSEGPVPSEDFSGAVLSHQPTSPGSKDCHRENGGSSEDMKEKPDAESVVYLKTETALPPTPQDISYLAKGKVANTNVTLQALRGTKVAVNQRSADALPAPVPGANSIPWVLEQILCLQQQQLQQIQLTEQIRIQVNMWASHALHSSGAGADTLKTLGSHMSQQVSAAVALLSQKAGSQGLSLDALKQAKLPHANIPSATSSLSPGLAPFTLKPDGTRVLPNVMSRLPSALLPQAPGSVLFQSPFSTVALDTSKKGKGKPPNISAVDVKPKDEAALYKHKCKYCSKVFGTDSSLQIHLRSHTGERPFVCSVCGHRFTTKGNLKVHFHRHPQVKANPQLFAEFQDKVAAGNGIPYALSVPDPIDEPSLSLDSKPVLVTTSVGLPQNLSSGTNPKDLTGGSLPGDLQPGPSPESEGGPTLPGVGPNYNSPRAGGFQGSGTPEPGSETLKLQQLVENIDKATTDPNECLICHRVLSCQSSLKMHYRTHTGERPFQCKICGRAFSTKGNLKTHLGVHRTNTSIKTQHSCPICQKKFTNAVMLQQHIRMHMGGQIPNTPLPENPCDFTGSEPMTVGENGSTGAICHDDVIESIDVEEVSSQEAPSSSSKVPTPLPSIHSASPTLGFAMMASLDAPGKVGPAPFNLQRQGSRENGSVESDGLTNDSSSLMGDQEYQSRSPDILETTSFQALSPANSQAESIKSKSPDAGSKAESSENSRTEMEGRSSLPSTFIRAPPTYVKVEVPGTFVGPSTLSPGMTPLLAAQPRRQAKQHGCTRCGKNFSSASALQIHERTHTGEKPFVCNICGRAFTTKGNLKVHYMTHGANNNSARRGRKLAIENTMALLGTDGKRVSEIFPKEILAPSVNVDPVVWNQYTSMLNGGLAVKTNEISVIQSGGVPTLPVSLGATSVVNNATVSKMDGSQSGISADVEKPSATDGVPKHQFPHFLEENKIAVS
Molecule	target	assay	system	setting	how to read	measurement	value
CATGACGC	SALL4 full length isoform A	universal PBM	double-stranded DNA, one strand shown, in vitro	600 nM, 8-mer, flanks averaged, mean of replicates	higher = stronger binding	E-score	-0.0794
PhoQ, residues 284 288 289 292 302 303 AGHLVA	PhoP, residues 12 14 15 18 19 AQCLL (Escherichia coli, UniProt P23836)	Sort-seq, measured: YFP reporter	E. coli	PhoQ-PhoP variant library, together with: 10 µM Mg2+	reference: high Mg2+ state, higher = stronger signaling	fold induction	5.78
ACGAGGCC	SALL4 full length isoform A	universal PBM	double-stranded DNA, one strand shown, in vitro	600 nM, 8-mer, flanks averaged, mean of replicates	higher = stronger binding	E-score	-0.274

A few entries again (sample 2):
Strand	E-score
AGACCTAG	-0.0426
